Measurements of several laboratories.
Compare with care: the assays were run in different laboratories. Values joined by “and” are separate records of one study, mostly repeats; a detail may differ. ± marks the error that the study gave.
FGB: FGB (Homo sapiens, UniProt P02675)
Chain of UniProt Q64663 (whole entry, unmodified, looked up): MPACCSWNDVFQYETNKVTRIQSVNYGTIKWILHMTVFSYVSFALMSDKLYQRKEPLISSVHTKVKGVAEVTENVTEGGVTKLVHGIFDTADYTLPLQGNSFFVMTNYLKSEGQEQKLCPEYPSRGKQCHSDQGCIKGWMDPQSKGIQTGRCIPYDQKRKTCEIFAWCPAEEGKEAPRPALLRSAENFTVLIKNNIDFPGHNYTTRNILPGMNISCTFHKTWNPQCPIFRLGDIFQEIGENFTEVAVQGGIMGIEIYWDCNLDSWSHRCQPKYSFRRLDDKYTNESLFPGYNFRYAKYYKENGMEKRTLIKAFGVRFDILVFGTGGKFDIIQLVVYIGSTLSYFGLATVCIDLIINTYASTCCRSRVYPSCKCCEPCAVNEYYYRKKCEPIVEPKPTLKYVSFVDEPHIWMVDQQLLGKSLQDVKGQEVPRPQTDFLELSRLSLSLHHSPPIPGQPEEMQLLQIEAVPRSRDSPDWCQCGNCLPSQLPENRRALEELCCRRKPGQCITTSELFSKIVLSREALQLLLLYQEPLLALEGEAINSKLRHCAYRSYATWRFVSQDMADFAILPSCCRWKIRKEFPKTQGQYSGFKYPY
Chain of UniProt Q9NTJ3 (whole entry, looked up): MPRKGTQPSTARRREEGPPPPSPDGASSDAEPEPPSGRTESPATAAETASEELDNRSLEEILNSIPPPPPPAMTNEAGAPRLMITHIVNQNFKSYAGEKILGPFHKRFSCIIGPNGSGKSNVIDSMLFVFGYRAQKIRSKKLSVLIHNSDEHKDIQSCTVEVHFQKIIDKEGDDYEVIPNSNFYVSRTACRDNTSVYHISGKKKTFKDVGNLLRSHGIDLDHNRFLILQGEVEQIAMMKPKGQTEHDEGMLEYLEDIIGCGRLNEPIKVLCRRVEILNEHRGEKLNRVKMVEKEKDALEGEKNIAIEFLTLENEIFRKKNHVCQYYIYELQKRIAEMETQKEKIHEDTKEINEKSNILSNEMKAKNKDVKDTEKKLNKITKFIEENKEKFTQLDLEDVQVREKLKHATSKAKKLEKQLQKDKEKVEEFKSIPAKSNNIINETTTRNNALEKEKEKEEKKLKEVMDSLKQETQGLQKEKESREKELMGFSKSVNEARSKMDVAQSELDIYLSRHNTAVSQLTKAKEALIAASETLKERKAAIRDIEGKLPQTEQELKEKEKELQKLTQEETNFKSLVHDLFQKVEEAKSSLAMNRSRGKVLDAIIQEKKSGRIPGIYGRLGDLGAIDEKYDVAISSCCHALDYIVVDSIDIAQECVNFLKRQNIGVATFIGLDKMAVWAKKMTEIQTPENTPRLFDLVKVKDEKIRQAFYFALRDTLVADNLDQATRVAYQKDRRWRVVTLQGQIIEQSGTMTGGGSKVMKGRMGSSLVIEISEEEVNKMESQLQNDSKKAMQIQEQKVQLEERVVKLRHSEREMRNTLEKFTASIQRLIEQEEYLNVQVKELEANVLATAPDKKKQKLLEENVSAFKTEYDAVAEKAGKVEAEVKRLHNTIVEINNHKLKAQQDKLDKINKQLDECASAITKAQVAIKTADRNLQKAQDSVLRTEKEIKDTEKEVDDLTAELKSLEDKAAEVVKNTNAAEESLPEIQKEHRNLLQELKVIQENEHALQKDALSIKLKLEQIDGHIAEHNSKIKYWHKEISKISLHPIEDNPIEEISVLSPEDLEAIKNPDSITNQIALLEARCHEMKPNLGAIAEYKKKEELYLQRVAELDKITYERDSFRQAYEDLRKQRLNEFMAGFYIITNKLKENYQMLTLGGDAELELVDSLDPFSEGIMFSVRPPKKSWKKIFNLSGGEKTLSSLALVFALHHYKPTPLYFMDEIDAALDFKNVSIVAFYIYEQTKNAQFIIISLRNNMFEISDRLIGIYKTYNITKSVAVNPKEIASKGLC
Chain of UniProt P84090 (whole entry, unmodified, looked up): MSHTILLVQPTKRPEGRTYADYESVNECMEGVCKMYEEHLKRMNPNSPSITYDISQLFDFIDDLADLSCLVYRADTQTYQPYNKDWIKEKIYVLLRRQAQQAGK
Chain of UniProt Q00610 (whole entry, looked up): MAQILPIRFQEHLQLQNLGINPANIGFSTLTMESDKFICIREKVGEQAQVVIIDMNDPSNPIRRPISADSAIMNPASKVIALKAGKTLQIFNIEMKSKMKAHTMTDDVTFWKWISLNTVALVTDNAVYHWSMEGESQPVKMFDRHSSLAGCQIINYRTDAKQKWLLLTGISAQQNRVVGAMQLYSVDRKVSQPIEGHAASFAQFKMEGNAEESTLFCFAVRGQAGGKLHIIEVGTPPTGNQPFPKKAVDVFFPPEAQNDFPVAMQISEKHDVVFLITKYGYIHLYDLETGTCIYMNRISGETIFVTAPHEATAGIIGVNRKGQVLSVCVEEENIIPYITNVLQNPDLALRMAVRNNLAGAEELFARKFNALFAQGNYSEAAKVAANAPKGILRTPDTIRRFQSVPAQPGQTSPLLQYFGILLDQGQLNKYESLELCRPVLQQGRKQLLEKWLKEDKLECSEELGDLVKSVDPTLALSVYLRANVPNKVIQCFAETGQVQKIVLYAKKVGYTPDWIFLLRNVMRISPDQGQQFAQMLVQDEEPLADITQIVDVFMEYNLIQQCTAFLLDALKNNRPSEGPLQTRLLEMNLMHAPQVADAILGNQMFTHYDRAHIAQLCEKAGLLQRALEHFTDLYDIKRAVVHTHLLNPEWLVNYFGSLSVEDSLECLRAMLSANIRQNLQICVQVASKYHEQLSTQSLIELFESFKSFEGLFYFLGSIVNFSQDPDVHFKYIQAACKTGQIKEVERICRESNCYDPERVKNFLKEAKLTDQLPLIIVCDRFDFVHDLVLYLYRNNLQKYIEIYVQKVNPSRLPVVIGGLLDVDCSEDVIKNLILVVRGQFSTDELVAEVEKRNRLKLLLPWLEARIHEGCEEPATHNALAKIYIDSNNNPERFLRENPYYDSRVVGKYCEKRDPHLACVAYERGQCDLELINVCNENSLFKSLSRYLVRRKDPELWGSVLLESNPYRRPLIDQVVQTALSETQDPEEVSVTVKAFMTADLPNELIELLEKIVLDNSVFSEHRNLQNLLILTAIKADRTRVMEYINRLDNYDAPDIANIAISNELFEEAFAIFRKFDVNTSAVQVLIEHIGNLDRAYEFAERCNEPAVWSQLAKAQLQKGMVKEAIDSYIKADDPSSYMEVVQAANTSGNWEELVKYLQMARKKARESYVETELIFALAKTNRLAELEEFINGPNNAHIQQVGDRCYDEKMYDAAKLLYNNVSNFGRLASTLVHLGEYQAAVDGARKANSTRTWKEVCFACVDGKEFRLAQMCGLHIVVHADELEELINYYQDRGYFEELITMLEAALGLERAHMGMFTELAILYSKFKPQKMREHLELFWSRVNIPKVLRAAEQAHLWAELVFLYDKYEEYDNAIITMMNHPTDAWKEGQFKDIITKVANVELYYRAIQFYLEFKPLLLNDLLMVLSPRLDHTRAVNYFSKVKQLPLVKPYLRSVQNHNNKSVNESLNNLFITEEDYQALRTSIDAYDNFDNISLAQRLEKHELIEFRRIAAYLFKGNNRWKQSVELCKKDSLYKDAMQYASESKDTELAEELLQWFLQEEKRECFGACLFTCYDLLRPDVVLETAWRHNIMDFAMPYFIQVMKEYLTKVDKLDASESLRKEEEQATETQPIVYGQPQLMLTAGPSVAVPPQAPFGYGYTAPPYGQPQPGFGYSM
Chain of UniProt P13667 (whole entry, looked up): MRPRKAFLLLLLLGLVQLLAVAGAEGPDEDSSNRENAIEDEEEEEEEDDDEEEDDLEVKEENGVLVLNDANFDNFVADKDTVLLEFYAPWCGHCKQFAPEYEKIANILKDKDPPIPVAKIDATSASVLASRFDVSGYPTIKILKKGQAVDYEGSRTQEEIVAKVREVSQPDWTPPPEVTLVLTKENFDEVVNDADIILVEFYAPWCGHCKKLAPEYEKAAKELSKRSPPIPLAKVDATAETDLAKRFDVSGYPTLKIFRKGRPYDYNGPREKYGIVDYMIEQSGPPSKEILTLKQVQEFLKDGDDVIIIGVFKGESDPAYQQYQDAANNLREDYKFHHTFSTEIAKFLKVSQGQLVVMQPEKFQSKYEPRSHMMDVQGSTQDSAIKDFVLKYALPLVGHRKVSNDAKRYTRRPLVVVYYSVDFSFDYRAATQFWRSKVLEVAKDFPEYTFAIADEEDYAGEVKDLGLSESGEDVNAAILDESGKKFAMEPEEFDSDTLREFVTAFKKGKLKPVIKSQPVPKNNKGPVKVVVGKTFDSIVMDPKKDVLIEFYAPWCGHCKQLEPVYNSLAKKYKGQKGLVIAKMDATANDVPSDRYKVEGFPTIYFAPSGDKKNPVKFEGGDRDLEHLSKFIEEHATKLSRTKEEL
Chain of UniProt P05141 (whole entry, looked up): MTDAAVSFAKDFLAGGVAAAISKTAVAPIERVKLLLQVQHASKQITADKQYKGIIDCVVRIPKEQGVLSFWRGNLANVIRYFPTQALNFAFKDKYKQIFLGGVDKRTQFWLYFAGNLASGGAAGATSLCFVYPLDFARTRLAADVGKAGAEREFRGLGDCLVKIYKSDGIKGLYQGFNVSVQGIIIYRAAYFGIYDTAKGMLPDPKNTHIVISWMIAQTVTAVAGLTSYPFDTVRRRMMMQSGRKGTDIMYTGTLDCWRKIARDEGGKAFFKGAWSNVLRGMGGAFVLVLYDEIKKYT
Chain of UniProt P12236 (whole entry, looked up): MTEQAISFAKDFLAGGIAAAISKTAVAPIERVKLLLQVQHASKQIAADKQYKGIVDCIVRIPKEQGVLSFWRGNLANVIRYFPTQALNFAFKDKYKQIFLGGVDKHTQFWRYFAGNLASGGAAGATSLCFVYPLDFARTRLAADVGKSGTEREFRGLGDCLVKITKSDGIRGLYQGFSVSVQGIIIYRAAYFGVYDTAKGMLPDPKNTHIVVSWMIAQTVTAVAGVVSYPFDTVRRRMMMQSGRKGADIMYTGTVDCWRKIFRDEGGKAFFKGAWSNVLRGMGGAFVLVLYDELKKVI

Substance = colistin; target or system = Serratia fonticola; system = clinical isolate RKI 517/16; measurement = MIC; value = > 64 µg/mL
Substance = Teicoplanin; assay = ultrafiltration; conditions = high QC, weight corrected; measurement = ultrafiltrate solubility loss; value = 0.36%
Substance = KDM5A (Homo sapiens, UniProt P29375); target or system = MTNAP1 (Homo sapiens, UniProt Q9BSJ5); assay = cross-linking MS; conditions = together with: DSSO; measurement = cross-linked residues; value = K960 to K110
Substance = caspofungin; system = adult ICU patients, mITT, serum; conditions = dose not given, EOT; measurement = bilirubin; value = 18.6 µmol/L
Substance = BzATP; target or system = P2X purinoceptor 7 (P2rx7, Rattus norvegicus, UniProt Q64663, I214A/R125A); assay = ion current, agonist, two-electrode voltage clamp; system = Xenopus laevis oocytes; conditions = 11 µM; how to read = reference: highest concentration response; measurement = normalized current; value = 0.38 and 0.3 and 0.37
Substance = PHGDH (Homo sapiens, UniProt O43175); target or system = CYCS (Homo sapiens, UniProt P99999); assay = cross-linking MS; system = cells; conditions = together with: BDP-NHP; measurement = cross-linked residues; value = K289 to K28
Substance = PRTARHAPAVRKFSPDLKLLKDVKISVSFTE (DGCR8(96-126), SUMO-tagged); target or system = Enhancer of rudimentary homolog (Homo sapiens, UniProt P84090); assay = DGCR8 peptide binding, ITC; system = peptide; conditions = 293 K; measurement = ΔH; value = -4.45 ± 0.189 kcal/mol
Substance = DIAPH2 (Homo sapiens, UniProt O60879); target or system = FGB; assay = cross-linking MS; conditions = together with: DSSO; measurement = cross-linked residues; value = K502 to K83
Substance = UBTF (Homo sapiens, UniProt P17480); target or system = PLEC (Homo sapiens, UniProt Q15149); assay = cross-linking MS; system = cells; conditions = together with: iqPIR; measurement = cross-linked residues; value = K635 to K3183
Substance = DARS1 (Homo sapiens, UniProt P14868); target or system = AIMP2 (Homo sapiens, UniProt Q13155); assay = cross-linking MS; system = cells; conditions = together with: BDP-NHP; measurement = cross-linked residues; value = K330 to K159
Substance = PSMD12 (Homo sapiens, UniProt O00232); target or system = SPTBN5 (Homo sapiens, UniProt Q9NRC6); assay = cross-linking MS; conditions = together with: DSSO or DMTMM; measurement = cross-linked residues; value = M1 to E3537
Substance = insulin; assay = LC-MS/MS; system = prepared human sample; conditions = two freeze-thaw cycles, low pool; measurement = concentration; value = 0.36 ng/mL
Substance = SLC25A5 (Homo sapiens, UniProt P05141); target or system = SLC25A6 (Homo sapiens, UniProt P12236); assay = cross-linking MS; system = purified complex; conditions = together with: DSSO; measurement = cross-linked residues; value = K147 to K147
Substance = CLTB (Homo sapiens, UniProt P09497); target or system = CLTC (Homo sapiens, UniProt Q00610); assay = cross-linking MS; system = cells; conditions = together with: iqPIR; measurement = cross-linked residues; value = K133 to K1441
Substance = A2M (Homo sapiens, UniProt P01023); target or system = PAK6 (Homo sapiens, UniProt Q9NQU5); assay = cross-linking MS; conditions = together with: DSSO; measurement = cross-linked residues; value = K1133 to K436
Substance = KRT8 (Homo sapiens, UniProt P05787); target or system = PDIA4 (Homo sapiens, UniProt P13667); assay = cross-linking MS; system = cells; conditions = together with: iqPIR; measurement = cross-linked residues; value = K92 to K145
Substance = adrenomedullin; assay = RP-HPLC; system = HALO Peptide ES-C18 column; conditions = 25 µM, acetic acid/acetonitrile, 10 min gradient; measurement = retention time; value = 4.77 min
Substance = CCT6A (Homo sapiens, UniProt P40227); target or system = CCT6B (Homo sapiens, UniProt Q92526); assay = cross-linking MS; system = cells; conditions = together with: iqPIR; measurement = cross-linked residues; value = K251 to K295
Substance = FGA (Homo sapiens, UniProt P02671); target or system = TARS1 (Homo sapiens, UniProt P26639); assay = cross-linking MS; conditions = together with: DSSO; measurement = cross-linked residues; value = K195 to K28
Substance = PSMB3 (Homo sapiens, UniProt P49720); target or system = SPOCD1 (Homo sapiens, UniProt Q6ZMY3); assay = cross-linking MS; system = cells; conditions = together with: iqPIR; measurement = cross-linked residues; value = K77 to K1045
Substance = LMNA (Homo sapiens, UniProt P02545); target or system = LMNB1 (Homo sapiens, UniProt P20700); assay = cross-linking MS; system = cells; conditions = together with: BDP-NHP; measurement = cross-linked residues; value = K144 to K157
Substance = SMC2 (Homo sapiens, UniProt O95347); target or system = SMC4 (Homo sapiens, UniProt Q9NTJ3); assay = cross-linking MS; system = cells; conditions = together with: iqPIR; measurement = cross-linked residues; value = K677 to K598
Substance = 11-deoxycorticosterone; target or system = CYP11B2 (human); assay = substrate binding, stopped-flow kinetic modelling; conditions = 4-state branched induced-fit model, together with: no adrenodoxin; measurement = rate constant k2; value = 80.7 min⁻¹
Substance = ALB (Homo sapiens, UniProt P02768); target or system = LDHAL6A (Homo sapiens, UniProt Q6ZMR3); assay = cross-linking MS; conditions = together with: DSSO; measurement = cross-linked residues; value = K223 to K318
Substance = SPTBN1 (Homo sapiens, UniProt Q01082); target or system = SPTAN1 (Homo sapiens, UniProt Q13813); assay = cross-linking MS; system = cells; conditions = together with: BDP-NHP; measurement = cross-linked residues; value = K1815 to K613
Substance = PLOD2 (Homo sapiens, UniProt O00469); target or system = GAPDH (Homo sapiens, UniProt P04406); assay = cross-linking MS; system = cells; conditions = together with: iqPIR; measurement = cross-linked residues; value = K67 to K194
Substance = HNRNPK (Homo sapiens, UniProt P61978); target or system = CFAP251 (Homo sapiens, UniProt Q8TBY9); assay = cross-linking MS; system = cells; conditions = together with: BDP-NHP; measurement = cross-linked residues; value = K52 to K1064
Substance = Polymyxin B; assay = untargeted LC-MS metabolomics, refers to: L-pipecolate; system = Sprague-Dawley rat, right cerebral cortex; conditions = intracerebroventricular, 0.75 mg/kg, 1 h; how to read = reference: NaCl control; measurement = log2 fold change; value = -1.9
Substance = FNA / CGLSGLGVA-NH2 ([18F]FNA-labelled, C-amide); assay = ex vivo gamma counting; system = peptide, glioblastoma mouse model, urine; conditions = 60 min post injection, together with: 500-fold excess CooP blocking; measurement = tissue uptake; value = 437 %ID/g
Substance = MAGEC1 (Homo sapiens, UniProt O60732); target or system = FGB; assay = cross-linking MS; conditions = together with: DSSO; measurement = cross-linked residues; value = K926 to K374
Substance = ANK2 (Homo sapiens, UniProt Q01484); target or system = SEMA5B (Homo sapiens, UniProt Q9P283); assay = cross-linking MS; conditions = together with: DSSO or DMTMM; measurement = cross-linked residues; value = K3148 to D827

Repeated from above:
Substance = CLTB (Homo sapiens, UniProt P09497); target or system = CLTC (Homo sapiens, UniProt Q00610); assay = cross-linking MS; system = cells; conditions = together with: iqPIR; measurement = cross-linked residues; value = K133 to K1441
Substance = A2M (Homo sapiens, UniProt P01023); target or system = PAK6 (Homo sapiens, UniProt Q9NQU5); assay = cross-linking MS; conditions = together with: DSSO; measurement = cross-linked residues; value = K1133 to K436
Substance = KRT8 (Homo sapiens, UniProt P05787); target or system = PDIA4 (Homo sapiens, UniProt P13667); assay = cross-linking MS; system = cells; conditions = together with: iqPIR; measurement = cross-linked residues; value = K92 to K145
Substance = adrenomedullin; assay = RP-HPLC; system = HALO Peptide ES-C18 column; conditions = 25 µM, acetic acid/acetonitrile, 10 min gradient; measurement = retention time; value = 4.77 min
